Measured values gathered from unrelated publications.
Compare with care: the assays were run in different laboratories. Values joined by “and” are separate records of one study, mostly repeats; a detail may differ. ± gives the spread as reported.

Structure (SMILES)	target or system	test	system	conditions	how to read	measurement	result
COC1CN([C@H]2CC[C@H]([C@@]3(C)Oc4c(Cl)cc(C(=O)NCc5c(SC)cc(C)[nH]c5=O)c(C)c4O3)CC2)C1		RNA-seq, item: STAC	human, whole blood	dose not given, 24 h	relative to: pretreatment baseline	log2 fold change	3.16
Cc1cccc(-c2cccc(C)n2)n1.Cc1cccc(-c2cccc(C)n2)n1.F[P-](F)(F)(F)(F)F.F[P-](F)(F)(F)(F)F.[Ru+2].c1ccc2c(-c3nc4c5cccnc5c5ncccc5c4[nH]3)c3ccccc3cc2c1	SK-MEL-28			normoxia, added: blue light 453 nm, 100 J/cm2	relative to: dark over light EC50	phototoxicity index	99
COc1ccccc1-c1ccncc1C(=O)Nc1nnc(OCc2ccc(Cl)cc2)s1	PEO1 BRCA2-mutant			0.25 µM, added: olaparib 0.25 µM		colony survival	12.9%
Cc1ncsc1-c1ccc(C(C)NC(=O)C2CC(O)CN2C(=O)C(NC(=O)CCCCCCCCCCN2CCCC(Nc3ncc(Cl)c(Nc4ccccc4S(=O)(=O)C(C)C)n3)C2)C(C)(C)C)cc1 (stereo not shown)	22Rv1	RNA-seq, item: RAB11FIP4 mRNA		concentration not given	relative to: DMSO	log2 fold change	-1.21
CN1CCCNC(=O)c2cccc(c2)C(=O)NCCCN(C)CCCNc2cccc3c2C(=O)c2cccc(c2C3=O)NCCC1	SAS	RNA-Seq, item: GADD45B mRNA		1 µM, 24 h	relative to: untreated cells	log2 fold change	0.302
C[C@@H](Nc1c(-c2c(F)cc(C#N)cc2F)c(Cl)nc2ncnn12)C(C)(C)C	QBI293	microtubule stabilization, ELISA, item: acetylated α-tubulin		4 h		minimum effective concentration	0.3 µM
CN1CCN(C(=O)c2ccc(-c3cc4c(N5CCC[C@H](C(=O)NCc6ccc(OC(F)(F)F)cc6)C5)ncnc4[nH]3)cc2)CC1	NCI-H3122	cell growth or viability, MTT		0.2 µg/mL, 72 h		inhibition	51.3%
CNc1ncnc2c1ncn2C1OC(CO)C(O)C1O (stereo not shown)	mock-transfected cells	TGFα shedding, agonist		1 µM	relative to: unstimulated vehicle control	AP-TGFα release	0.79% and 1.53% and 2.03%
CCC1C(COc2nccc3cc(C(N)=O)c(OC)cc23)NC(=O)C1F (stereo not shown)	U2932	cell growth or viability, WST-1		72 h		GI50	> 10000 nM
CCN(C(=O)c1cc(F)ccc1Oc1nncnc1N1CCC2(C1)CN([C@H](CCCN(C)CCOC)C(C)C)C2)C(C)C	SK-HEP1	cell growth or viability		72 h		GI50	> 10000 nM
Cc1cccc(-c2cccc(C)n2)n1.Cc1cccc(-c2cccc(C)n2)n1.F[P-](F)(F)(F)(F)F.F[P-](F)(F)(F)(F)F.[Ru+2].c1cc2ccc3ccc(-c4nc5c6cccnc6c6ncccc6c5[nH]4)c4ccc(c1)c2c34	SK-MEL-28	cell viability		normoxia, added: blue light 453 nm, 100 J/cm2		EC50	2900 ± 60 nM
CC(C)Cc1ccc(C(C)C(=O)[Se]CC(=O)Nc2cccc(C(F)(F)F)c2)cc1 (stereo not shown)	NCI60 prostate subpanel (PC-3, DU-145)	cell growth, inhibitor		five-dose		GI50	1820 nM
CNS(=O)(=O)Nc1nccc(Cc2c(C)c3ccc(Oc4ncccc4F)cc3oc2=O)c1F	NCI-H1755	cell viability		7 days		IC50	> 1000 nM
CC(C)c1ccc(N(C)c2ccc3c(c2)OCC[C@H]3CNc2cnccc2C(=O)O)cc1	LOUCY	cell growth or viability, MTS		7 days		IC50	< 10 nM
Cc1cc(NC2CCN(C)CC2)ccc1-c1cc2c(N3CCC[C@H](C(=O)N[C@H](C)c4ccccc4)C3)ncnc2[nH]1	NCI-H3122	cell growth or viability, MTT		0.2 µg/mL, 72 h		inhibition	46.5%
CCN(CC)CC(=O)Nc1cccc(-n2cc(-c3ccc4ccc(-c5cn(-c6cccc(NC(=O)CN(CC)CC)c6)nn5)cc4c3)nn2)c1	RCC4	PCR array, item: HGF		5 x IC50, 4 h, normoxia	relative to: untreated	fold regulation	1.06

Structure (SMILES)	target or system	test	system	conditions	how to read	measurement	result
CSC(=S)N/N=C(\C)c1ccc(Nc2nnc(-c3ccc(Cl)cc3)c3ccccc23)cc1	HepG2	cell growth or viability, MTT		78 nM		cell death	0.909%
NCCCC[C@H](NC(=O)[C@H](Cc1ccc(O)cc1)NC(=O)[C@H](CCCCN)NC(=O)[C@H](Cc1c[nH]c2ccccc12)NC(=O)[C@H](Cc1ccccc1)NC(=O)[C@H](Cc1ccccc1)NC(=O)Cc1ccc(-c2ccccc2)cc1)C(=O)NCC(=O)N[C@@H](Cc1c[nH]cn1)C(=O)N1CCC[C@H]1C(=O)NCC(=O)NCC(=O)N1CCC[C@H]1C(=O)N[C@@H](CCC(N)=O)C(=O)N[C@@H](CC(=O)O)C(=O)N[C@@H](CC(=O)O)C(=O)N[C@@H](CC(=O)O)C(=O)N[C@@H](CC(=O)O)C(=O)N[C@@H](CC(=O)O)C(=O)N[C@@H](CC(=O)O)C(=O)O	RAW264.7-derived osteoclasts			concentration not given, 6 days, added: RANKL	relative to: RANKL alone	TRAP-positive osteoclast number	decreased
CN1CC[C@@H](COc2cnc(C#N)cc2-c2ccn3nc(NC(=O)C4CC4)cc3c2)C1	human PBMC, myeloid cells	single-cell RNA-seq		10 µM, added: LPS	relative to: LPS alone	number of reduced transcripts	22 transcripts
CSCC[C@H](NC(=O)[C@H](CCC(N)=O)NC(=O)[C@H](CCCCN)NC(=O)[C@H](CCCNC(=N)N)NC(=O)[C@H](Cc1ccc(O)cc1)NC(=O)[C@H](CCCNC(=N)N)NC(=O)[C@H](CO)NC(=O)[C@H](Cc1ccc(O)cc1)NC(=O)[C@H](CO)NC(=O)[C@H](CC(=O)O)NC(=O)[C@@H](NC(=O)[C@@H](N)Cc1ccccc1)[C@@H](C)O)C(=O)N[C@@H](C)C(=O)N[C@H](C(=O)N[C@@H](CCCCN)C(=O)N[C@@H](CCCCn1cc(C[C@H](NC(=O)CNC(=O)[C@H](CO)NC(=O)[C@H](CCCNC(=N)N)NC(=O)[C@H](CO)NC(=O)[C@H](CC(C)C)NC(=O)[C@H](CC(C)C)NC(=O)CNC(=O)[C@H](C)NC(=O)[C@H](CC(C)C)NC(=O)[C@H](CCCNC(=N)N)NC(=O)[C@H](Cc2c[nH]cn2)NC(=O)[C@@H](NC(=O)[C@@H](N)C(C)C)[C@@H](C)O)C(=O)N[C@H](C(=O)N[C@H](C(=O)N[C@@H](CCCCN)C(=O)N[C@@H](CC(N)=O)C(=O)N[C@@H](CC(N)=O)C(=O)N[C@@H](Cc2ccccc2)C(=O)N[C@H](C(=O)N2CCC[C@H]2C(=O)N[C@H](C(=O)N[C@@H](CC(N)=O)C(=O)N[C@H](C(=O)NCC(=O)N[C@@H](CO)C(=O)N[C@@H](CCCCN)C(=O)N[C@@H](C)C(=O)N[C@@H](Cc2ccccc2)C(N)=O)C(C)C)[C@@H](C)O)C(C)C)C(C)C)C(C)C)nn1)C(=O)N[C@@H](Cc1ccc(O)cc1)C(=O)N[C@@H](CC(C)C)C(=O)N[C@@H](C)C(=O)N[C@@H](C)C(=O)N[C@H](C(=O)N[C@@H](CC(C)C)C(=O)NCC(=O)N[C@@H](CCCCN)C(=O)N[C@@H](CCCNC(=N)N)C(=O)N[C@@H](Cc1ccc(O)cc1)C(=O)N[C@@H](CCCCN)C(=O)N[C@@H](CCC(N)=O)C(=O)N[C@@H](CCCNC(=N)N)C(=O)N[C@H](C(=O)N[C@@H](CCCCN)C(=O)N[C@@H](CC(N)=O)C(=O)N[C@@H](CCCCN)C(N)=O)C(C)C)C(C)C)C(C)C	transfected COS-7 cells	cAMP accumulation, antagonist		added: PACAP-38		A2	> 10 µM
CO[C@@H]1[C@@H](OC(N)=O)[C@@H](O)[C@H](Oc2ccc3c(O)c(NC(=O)c4ccc(O)c(CC=C(C)C)c4)c(=O)oc3c2C)OC1(C)C	HCT-116 BRCA2 wild-type			100 µM, replicate A	relative to: untreated	colony survival	91.9%
Cc1c(Cl)cccc1Nc1ccccc1C(=O)[Se]CC(=O)Nc1cccc(C(F)(F)F)c1	NCI60 prostate subpanel (PC-3, DU-145)	total growth inhibition, inhibitor		five-dose		mean TGI	3260 nM
COc1cc(N2CCN(C(=O)CN)CC2)ccc1Nc1ncc(Cl)c(Nc2ccccc2P(C)(C)=O)n1	NCI-H3122	CCK-8		500 nM, 48 h		viability	21%
O=C(C[Se]C(=O)c1ccc2ccccc2n1)Nc1cccc(C(F)(F)F)c1	NCI60 prostate subpanel (PC-3, DU-145)	cell growth, inhibitor		five-dose		GI50	1780 nM
CC1(C)CC[C@@]2(CO)C(=C3C=C[C@@H]4[C@@]5(C)CC[C@H](O)[C@@](C)(CO)[C@@H]5CC[C@@]4(C)[C@]3(C)C[C@@H]2O)C1	HepG2, negative control siRNA	Western blot, item: phospho-mTOR		concentration not given, high dose, unit not given, added: ethanol	relative to: β-actin	protein level	0.38 and 0.221 and 0.531
C=CC(=O)N1[C@H](c2ccc3c(c2)OCO3)c2[nH]c3ccccc3c2C[C@@H]1C(=O)NC	rat DRG neurons			0.04115 µM, 48 h, added: vincristine 40 nM		neuron degeneration	79.1% and 75.2%
COC1=C2CC(C)CC(OC)C(O)C(C)C=C(C)C(OC(N)=O)C(OC)C=CC=C(C)C(=O)NC(=CC1=O)C2=O (stereo not shown)	Rh30	ChIP-seq, item: H3K36me3 peak		concentration not given, KLF10 non-coding chr8:103658800-103665999	relative to: untreated control	log fold change	-0.885
O=C(C[Se]C(=O)c1ccccc1Nc1cccc(C(F)(F)F)c1)Nc1cccc(C(F)(F)F)c1	NCI60 prostate subpanel (PC-3, DU-145)	cell growth, inhibitor		five-dose		GI50	1560 nM
COC(=O)c1cc(NC2=NC(=O)C(=Cc3ccc(N(C)C)cc3)S2)ccc1OC(C)=O	A549	item: CEP78		2.93 µM, 24 h	relative to: DMSO	mRNA level	0.0161 fold change
Cn1ncc2cc(-c3cncc(Cl)c3N3CCC4(CCNC4=O)CC3)ccc21	LS174T	gene expression, microarray, item: TRIM31 mRNA		concentration not given, 24 h	relative to: untreated cells	log2 fold change	2.46
C#CCOC(=O)[C@@]1(C)C=C(C(=O)Nc2cccc(C(=O)Nc3ccc(C)c(Nc4nccc(-c5cccnc5)n4)c3)c2)C(=O)CC1	SH-SY5Y MKK7 active	western blot, item: phospho-c-Jun Ser73		0.3 µM, unit not given	relative to: doxycycline without inhibitor	phospho-c-Jun level	0.815

For quick reference, copied from above:
Structure (SMILES)	target or system	test	system	conditions	how to read	measurement	result
CNS(=O)(=O)Nc1nccc(Cc2c(C)c3ccc(Oc4ncccc4F)cc3oc2=O)c1F	NCI-H1755	cell viability		7 days		IC50	> 1000 nM
CC(C)c1ccc(N(C)c2ccc3c(c2)OCC[C@H]3CNc2cnccc2C(=O)O)cc1	LOUCY	cell growth or viability, MTS		7 days		IC50	< 10 nM
Cc1cc(NC2CCN(C)CC2)ccc1-c1cc2c(N3CCC[C@H](C(=O)N[C@H](C)c4ccccc4)C3)ncnc2[nH]1	NCI-H3122	cell growth or viability, MTT		0.2 µg/mL, 72 h		inhibition	46.5%
CCN(CC)CC(=O)Nc1cccc(-n2cc(-c3ccc4ccc(-c5cn(-c6cccc(NC(=O)CN(CC)CC)c6)nn5)cc4c3)nn2)c1	RCC4	PCR array, item: HGF		5 x IC50, 4 h, normoxia	relative to: untreated	fold regulation	1.06
CSC(=S)N/N=C(\C)c1ccc(Nc2nnc(-c3ccc(Cl)cc3)c3ccccc23)cc1	HepG2	cell growth or viability, MTT		78 nM		cell death	0.909%
